Assay results of several laboratories.
A part holds a random share of what one study measured.
Sequence of UniProt P48431 (19-118, looked up): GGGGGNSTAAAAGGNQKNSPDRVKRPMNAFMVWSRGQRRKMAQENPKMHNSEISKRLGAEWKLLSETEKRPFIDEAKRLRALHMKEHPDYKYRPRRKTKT

Block 1 — effect on: enzyme activity; mode: inhibitor; concentration: 20 µM; notes: primary screen; endpoint: inhibition
Target: Replicase polyprotein 1ab, main protease (rep, Severe acute respiratory syndrome coronavirus 2, UniProt P0DTD1)
S=c1[nH]nc(-c2ccccc2)o1: 63.5%
c1ccc2sc(SNC3CCCCC3)nc2c1: 70.1%
C[C@@](Cc1ccc(O)c(O)c1)(NN)C(=O)O: 90.7%

Block 2 — cell line: HEK-293T/ACE2; concentration: concentration not given; time: 16 (unit not given); reference: vehicle; endpoint: viability
Cc1ccc(Cl)c(Nc2ccccc2C(=O)O)c1Cl: 99.9%
Cc1cnc(C(=O)N[C@H]2CCCCC/C=C\[C@@H]3C[C@@]3(C(=O)NS(=O)(=O)C3CC3)NC(=O)[C@@H]3C[C@@H](Oc4nc5ccccc5c5ccccc45)CN3C2=O)cn1: 97.4%
CN1C(=O)OC(C)(C)C1=O: 94.8%
CN(C)C/C=C/C(=O)Nc1cc2c(Nc3ccc(F)c(Cl)c3)ncnc2cc1O[C@H]1CCOC1: 84.1%

Block 3 — technique: protein binding microarray; molecule type: double-stranded DNA, one strand shown; sample: in vitro; concentration: not given; reference: not given; reading: higher = stronger binding; endpoint: E-score
Target: Histone acetyltransferase KAT6A, winged helix 2, GST fusion (KAT6A, Homo sapiens, UniProt Q92794, residues 85-181)
Notes: 8-mer, flanks averaged, mean of 2 arrays, mostly near background
Residues (chain): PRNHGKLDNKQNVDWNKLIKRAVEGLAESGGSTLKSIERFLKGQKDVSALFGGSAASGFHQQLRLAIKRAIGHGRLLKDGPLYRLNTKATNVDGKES
GATTTCAC: 0.0813
ATTAGGTC: -0.0549
TACTATCA: 0.0359
CAATATTG: 0.0882
CAGCGTCC: 0.0688
CATGCACC: -0.121
ATTGTTTG: -0.0247
CAGGATCA: 0.0185

Block 4 — technique: universal PBM; molecule type: double-stranded DNA, one strand shown; sample: in vitro; concentration: not given; reading: higher = stronger binding; endpoint: E-score
Target: Sal-like protein 4, full length isoform B (SALL4, Homo sapiens, UniProt Q9UJQ4-2, residues 1-616)
Notes: 8-mer, flanks averaged, mean of replicates
Residues (chain): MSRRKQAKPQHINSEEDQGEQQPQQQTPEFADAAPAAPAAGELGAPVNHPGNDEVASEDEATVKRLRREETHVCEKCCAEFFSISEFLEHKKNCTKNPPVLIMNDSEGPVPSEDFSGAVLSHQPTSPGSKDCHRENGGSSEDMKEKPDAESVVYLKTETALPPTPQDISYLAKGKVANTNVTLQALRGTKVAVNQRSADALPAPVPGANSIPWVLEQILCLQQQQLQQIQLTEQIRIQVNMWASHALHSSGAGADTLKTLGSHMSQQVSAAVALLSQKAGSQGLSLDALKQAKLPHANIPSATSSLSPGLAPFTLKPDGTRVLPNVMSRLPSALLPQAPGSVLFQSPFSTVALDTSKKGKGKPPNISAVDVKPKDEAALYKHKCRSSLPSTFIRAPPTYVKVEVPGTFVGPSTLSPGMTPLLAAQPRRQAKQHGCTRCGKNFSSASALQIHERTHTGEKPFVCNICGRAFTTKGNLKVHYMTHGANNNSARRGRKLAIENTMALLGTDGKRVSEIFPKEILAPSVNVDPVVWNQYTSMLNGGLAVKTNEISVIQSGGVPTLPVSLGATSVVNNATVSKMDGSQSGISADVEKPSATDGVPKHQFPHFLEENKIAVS
CTTAATTC: 0.257
CAGACAGC: -0.196
GTAATAAC: 0.386
GGGCTAAC: -0.25
ATGAATCC: 0.187
AATTGGAA: 0.143
ACCTAGAC: -0.0532
CGGGATAA: 0.0161

Block 5 — mode: inhibitor; concentration: 20 µM; endpoint: inhibition
Target: Replicase polyprotein 1ab, nsp13 helicase (rep, Severe acute respiratory syndrome coronavirus 2, UniProt P0DTD1)
COc1ccc2nc(NC(=O)Nc3ccccc3)sc2c1: 8.56%
CNCCC(Oc1ccccc1OC)c1ccccc1 (stereo not shown): 2.2%
CC(C)Cc1ccc(C(C)C(=O)NCCO)cc1 (stereo not shown): 4.63%
C=C1/C(=C\C=C2/CCC[C@]3(C)[C@@H]([C@H](C)/C=C/[C@@H](O)C4CC4)CC[C@@H]23)C[C@@H](O)C[C@@H]1O: 25%
CN(C)CCN(Cc1ccccc1)c1ccccn1: 3.51%
O=C(N[C@H]1CCN(C(=O)c2cc(C(F)(F)F)cc(C(F)(F)F)c2)[C@H](Cc2ccc(Cl)cc2)C1)c1ccnc2ccccc12: -1.99%
C[C@H]1[C@H](C)CC[C@]2(C(=O)O)CC[C@]3(C)C(=CC[C@@H]4[C@@]5(C)C[C@@H](O)[C@H](O)C(C)(C)[C@@H]5CC[C@]43C)[C@H]12: -1.29%
Cc1ncc[nH]1: 2.25%
CN1C(=O)CC(c2ccccc2)C1=O (stereo not shown): 3.8%
CC1(C)OC[C@@H](COC(=O)CCc2ccc(OC[C@@H](O)CNCCNC(=O)N3CCOCC3)cc2)O1: 4.76%
Nc1nc(O)c2ncn(CCC(CO)CO)c2n1: 10.7%
CC1(C)[C@@H](O)CC[C@]2(C)[C@H]3C(=O)C=C4[C@@H]5C[C@@](C)(C(=O)O)CC[C@]5(C)CC[C@@]4(C)[C@]3(C)CC[C@@H]12: -1.32%
O=C(O)c1cnn(-c2nc3cc(OC(F)(F)F)c(Cl)cc3[nH]2)c1: 2.77%
COc1cc(OC)nc(O[C@H](C(=O)O)C(OC)(c2ccccc2)c2ccccc2)n1: 4.84%
COc1cc(C[C@@H](CO[C@@H]2O[C@H](CO)[C@@H](O)[C@H](O)[C@H]2O)[C@H](CO[C@@H]2O[C@H](CO)[C@@H](O)[C@H](O)[C@H]2O)Cc2ccc(O)c(OC)c2)ccc1O: -1.96%
COCCN1CCC(C(=O)NO)(S(=O)(=O)c2ccc(Oc3ccc(OC(F)(F)F)cc3)cc2)CC1: 3.94%
CNC(=O)c1c(-c2ccc(F)cc2)oc2cc(N(CCO)S(C)(=O)=O)c(C3CC3)cc12: -3.35%
CC(C)CC(N(C)C)C1(c2ccc(Cl)cc2)CCC1 (stereo not shown): 2.61%
c1ccc([C@@H]2C[C@H]2NC2CCNCC2)cc1: -0.03%
O=C(Nc1ccc(Oc2ccc(Cl)cn2)c(Cl)c1)c1ccccn1: 10.1%
Cc1cc(O)ccc1Cl: 6.74%
C=CCc1cccc(/C=N/NC(=O)CN2CCN(Cc3ccccc3)CC2)c1O: -0.25%
Nc1nc(=O)c2c([nH]1)NC[C@H](CNc1ccc(C(=O)N[C@@H](CCC(=O)O)C(=O)O)cc1)N2C=O: 4.78%
COCc1nnc(N2CC(Oc3ccc(F)cc3Cl)C2)n1-c1ccc(OC)nc1: 11.3%
C[C@H]1[C@H](C)CC[C@]2(C(=O)O)CC[C@]3(C)C(=CC[C@@H]4[C@@]5(C)C[C@@H](O)[C@H](O)[C@@](C)(CO)[C@@H]5CC[C@]43C)[C@H]12: 2.85%

Single results of other studies — technique: protein-binding microarray; molecule type: double-stranded DNA, one strand shown; sample: in vitro; concentration: not given; reading: higher = stronger binding
Notes: k-mer, scored over probes, only values ≥0.25
CTCF: Transcriptional repressor CTCF (CTCF, Homo sapiens, UniProt P49711, residues 1-727, full length assumed)
Sequence of UniProt P49711 (whole entry, looked up): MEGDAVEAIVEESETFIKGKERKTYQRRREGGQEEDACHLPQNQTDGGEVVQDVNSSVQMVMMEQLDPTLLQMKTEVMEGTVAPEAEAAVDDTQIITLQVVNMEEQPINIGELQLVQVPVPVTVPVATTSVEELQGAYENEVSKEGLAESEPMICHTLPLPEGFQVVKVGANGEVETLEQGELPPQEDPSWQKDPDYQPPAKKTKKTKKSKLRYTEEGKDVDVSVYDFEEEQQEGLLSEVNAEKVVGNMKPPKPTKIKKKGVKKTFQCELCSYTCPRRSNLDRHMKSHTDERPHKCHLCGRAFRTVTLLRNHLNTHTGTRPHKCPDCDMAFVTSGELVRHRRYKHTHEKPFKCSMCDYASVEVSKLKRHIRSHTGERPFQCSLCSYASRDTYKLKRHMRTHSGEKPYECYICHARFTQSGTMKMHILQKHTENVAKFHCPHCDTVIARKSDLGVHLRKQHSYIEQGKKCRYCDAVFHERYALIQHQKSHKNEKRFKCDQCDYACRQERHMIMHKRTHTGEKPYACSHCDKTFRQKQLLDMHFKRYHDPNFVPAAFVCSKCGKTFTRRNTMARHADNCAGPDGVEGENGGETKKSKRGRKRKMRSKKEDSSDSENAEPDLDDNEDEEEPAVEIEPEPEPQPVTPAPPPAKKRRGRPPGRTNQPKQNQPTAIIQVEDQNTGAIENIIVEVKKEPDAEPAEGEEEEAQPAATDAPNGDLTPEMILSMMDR
ACTATAGT  E-score (CTCF): 0.29
GCAATTAC  E-score (CTCF): 0.296
AATGCAC  E-score (Transcription factor SOX-2, HMG box (SOX2, Homo sapiens, UniProt P48431, residues 19-118)): 0.252
CATGTCCA  E-score (Protein max, full length (MAX, Homo sapiens, UniProt P61244-2, residues 1-151)): 0.263

For quick reference, copied from above (block 2):
Cc1ccc(Cl)c(Nc2ccccc2C(=O)O)c1Cl: 99.9%
Cc1cnc(C(=O)N[C@H]2CCCCC/C=C\[C@@H]3C[C@@]3(C(=O)NS(=O)(=O)C3CC3)NC(=O)[C@@H]3C[C@@H](Oc4nc5ccccc5c5ccccc45)CN3C2=O)cn1: 97.4%
CN1C(=O)OC(C)(C)C1=O: 94.8%
CN(C)C/C=C/C(=O)Nc1cc2c(Nc3ccc(F)c(Cl)c3)ncnc2cc1O[C@H]1CCOC1: 84.1%
